Published values pooled from the literature.
Every numbered part comes from another study and shows a few of its results, in no order. Changes are numbered by the printed parent chain.

Study 1
Target: CEP164, C-terminal peptide (human)
Technique: DHFR complementation, deep sequencing
Medium: yeast
Setting: single substitutions, model-inferred values
Baseline: wild type
Direction: higher = weaker binding
Starting sequence: PDZK1, PDZ domain 2 (human); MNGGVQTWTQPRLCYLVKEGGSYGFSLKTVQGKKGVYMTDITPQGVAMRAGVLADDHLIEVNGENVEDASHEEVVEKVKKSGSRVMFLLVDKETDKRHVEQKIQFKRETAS; partner HNRVKVYRF
Under “binding free energy change”, `M1N` is recorded as 0.00602 kcal/mol.
Under “binding free energy change”, `S83R` is recorded as -0.0849 kcal/mol.
`G3Y`: “binding free energy change” 0.0149 kcal/mol.
For `N65G`, “binding free energy change” read 0.262 kcal/mol.
`T9M`: “binding free energy change” 0.0333 kcal/mol.
For `E60T`, “binding free energy change” read 0.0719 kcal/mol.
Under “binding free energy change”, `I59H` is recorded as 1.18 kcal/mol.
For `S111L`, “binding free energy change” read 0.372 kcal/mol.

Study 2
Target: TAR DNA-binding protein 43, full length, His tag (TARDBP, Homo sapiens, UniProt Q13148, residues 1-414)
Technique: RNA Bind-n-Seq
Form: RNA
Medium: in vitro
Tested at: 20 nM
Setting: 6-mer, flanks averaged, single round
Added: 150 mM KCl
Baseline: input library
Direction: higher = stronger binding
`CGGCCC`: “6-mer enrichment (R)” 0.811.
For `CGUUGG`, “6-mer enrichment (R)” read 1.16.
For `AGGCUC`, “6-mer enrichment (R)” read 0.754.
For `AUCAGA`, “6-mer enrichment (R)” read 0.628.
`UGGUCA` — result for “6-mer enrichment (R)”: 0.772.
Under “6-mer enrichment (R)”, `UAUAAA` is recorded as 0.687.
Under “6-mer enrichment (R)”, `ACUGGU` is recorded as 0.79.
For `GACGAG`, “6-mer enrichment (R)” read 1.7.

Study 3
Target: UDP-N-acetylglucosamine--peptide N-acetylglucosaminyltransferase 110 kDa subunit (OGT, Homo sapiens, UniProt O15294)
UniProt O15294, sequence (whole entry, looked up): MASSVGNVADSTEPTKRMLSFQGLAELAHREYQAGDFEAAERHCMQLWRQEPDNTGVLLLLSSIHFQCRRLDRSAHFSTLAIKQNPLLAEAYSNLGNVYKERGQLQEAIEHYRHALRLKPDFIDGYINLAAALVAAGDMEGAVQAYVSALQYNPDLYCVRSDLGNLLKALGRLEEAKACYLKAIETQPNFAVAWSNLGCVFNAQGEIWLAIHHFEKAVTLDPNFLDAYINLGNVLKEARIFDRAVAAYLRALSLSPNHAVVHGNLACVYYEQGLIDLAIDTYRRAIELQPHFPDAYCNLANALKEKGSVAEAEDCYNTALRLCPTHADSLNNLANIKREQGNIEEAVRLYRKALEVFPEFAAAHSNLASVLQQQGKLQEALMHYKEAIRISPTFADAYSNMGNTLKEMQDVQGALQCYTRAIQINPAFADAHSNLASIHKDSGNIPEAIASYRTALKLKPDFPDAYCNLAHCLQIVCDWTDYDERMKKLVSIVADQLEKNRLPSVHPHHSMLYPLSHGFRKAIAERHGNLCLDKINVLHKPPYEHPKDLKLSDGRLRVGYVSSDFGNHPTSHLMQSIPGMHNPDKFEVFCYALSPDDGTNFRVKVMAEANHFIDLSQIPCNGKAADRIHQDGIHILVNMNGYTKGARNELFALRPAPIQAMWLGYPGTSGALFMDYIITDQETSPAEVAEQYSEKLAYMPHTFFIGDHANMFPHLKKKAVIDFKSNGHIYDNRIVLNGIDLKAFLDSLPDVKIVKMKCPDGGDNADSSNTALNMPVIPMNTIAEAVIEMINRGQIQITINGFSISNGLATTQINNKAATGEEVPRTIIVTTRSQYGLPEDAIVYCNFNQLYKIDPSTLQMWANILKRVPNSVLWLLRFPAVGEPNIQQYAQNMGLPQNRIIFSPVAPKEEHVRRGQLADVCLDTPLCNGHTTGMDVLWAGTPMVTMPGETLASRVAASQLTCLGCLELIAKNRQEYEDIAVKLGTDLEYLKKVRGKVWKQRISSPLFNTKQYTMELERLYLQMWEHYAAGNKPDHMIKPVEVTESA
Effect on: binding
Technique: phage display NGS
Form: peptide
Tested at: concentration not given
Setting: normalized abundance
Baseline: input library
For `DWHTDHWQSDHVHVH`, “enrichment fold change” read 4.71.
`GMYHHHERTWNQYQH`: “enrichment fold change” 9.33.
`VQQQFWPMYEIEYDK`: “enrichment fold change” 18.4.

Mixed results
Starting sequence: viral docking peptide; YKVKRRLVFGADD
For `L7W`, “normalised enrichment score” read 0.379 (CCND1, cyclin fold, Cln2 fusion (human); yeast growth competition, sequencing; yeast; strong parent motif; baseline: not given, higher = stronger binding).

Repeated from above (study 2):
Under “6-mer enrichment (R)”, `ACUGGU` is recorded as 0.79.
For `GACGAG`, “6-mer enrichment (R)” read 1.7.
